Measurements from different studies.
± gives the spread as reported.

SMILES | cell line | test | conditions | IC50
O=Cc1c(O)cc(O)cc1O[C@@H]1O[C@H](CO)[C@@H](O)[C@H](O)[C@H]1O | Hepa-1c1c7 | cell growth or viability | – | > 100 µM
Fc1ccc2nc(-c3ccc(OCc4cn(CCN5CCOCC5)nn4)c(F)c3)[nH]c2c1 | Z-138 | cell growth or viability, MTS | 72 h | 65.4 µM
CCCCCCCCCCCCCC(=O)OC[C@H](COP(=O)([O-])OCC[N+](C)(C)C)OC(=O)CCCCCCCCCCCCC | MH-22A | cell viability, MTT | 72 h | > 250 µM
CCN(CC)CCOc1ccc(-c2nc3ccc(F)cc3[nH]2)cc1 | Z-138 | cell growth or viability, MTS | 72 h | 31.1 µM
Cn1c(=O)c(/C=C/c2ccccc2)nc2ccccc21 | NCI-H460 | cell growth or viability, MTT | 72 h | 4.14 µM
CC(C)c1cccc(C(C)C)c1N1CCN(c2c(C(C)C)cccc2C(C)C)[C]1=[Au][Se]c1ccccc1 | Vero E6 | cytotoxicity, crystal violet staining | 96 h | > 100 µM
CS(=O)(=O)c1ccc2nc(NC(=O)Cn3cc(COc4ccc(/C=N/NC(=O)c5ccncc5)cc4)nn3)sc2c1 | T47D | cell growth or viability, MTT | 48 h | 46 µM
C=CC(C)(CO)c1cc2c(=O)c(-c3ccc(O)cc3O)coc2cc1O (stereo not shown) | Hepa-1c1c7 | cell growth or viability | – | > 100 µM
C=C1C[C@H](O)[C@H](Br)C(C)(C)[C@@]12CCC(C)=C(Cl)C2 | wild-type and Atf4 knockout MEFs | viability, CellTiter-Glo | 72 h | 4.04 µM
c1ccc2[nH]c(-c3ccc(OCCN4CCOCC4)cc3)nc2c1 | Z-138 | cell growth or viability, MTS | 72 h | 48.3 µM
CC(=O)O[C@H]1C(=O)[C@@]2(C)[C@H]([C@H](OC(=O)c3ccccc3)[C@]3(O)C[C@H](OC(=O)[C@H](O)[C@@H](NC(=O)c4ccccc4)c4ccccc4)C(C)=C1C3(C)C)[C@]1(OC(C)=O)CO[C@@H]1C[C@@H]2O | BEAS-2B | cell growth or viability, MTT | 72 h | 0.25 µM
CCCC[C@@H](C=O)NC(=O)[C@H](CC(C)C)NC(=O)OCc1ccccc1 | H4 cells overexpressing human APP K595N/M596L | amyloid beta secretion, MSD immunoassay, refers to: amyloid beta 40 | 24 h | 7.4 µM
C[C@]12CCC(=O)C=C1CC[C@@H]1[C@@H]2[C@@H](O)C[C@]2(C=O)[C@@H](C(=O)CO)CC[C@@H]12 | GPER-transduced Sf9 | ERK phosphorylation, inhibitor, immunoblotting | 15 min | 9e-05 µM
C=CC[n+]1ccc(-c2c3nc(c(-c4cc[n+](CC=C)cc4)c4ccc([nH]4)c(-c4ccc(OCCCCCCCCCCCCCCCC)c(OC)c4)c4nc(c(-c5cc[n+](CC=C)cc5)c5ccc2[nH]5)C=C4)C=C3)cc1 | KCL-22 | cell viability, vital dye exclusion | 48 h, light, 30 mW/cm2, 25 min | 0.7 ± 0.1 µM
C/C(=C\CC/C(C)=C/CC[C@]1(C)CCc2cc(O)cc(C)c2O1)CC/C=C(\C)C(=O)O | differentiated HL-60 | LTB4 formation | 30 min pre-incubation, with: thapsigargin | 7.5 µM
CS(=O)(=O)CCNCc1ccc(-c2ccc3ncnc(Nc4ccc(OCc5cccc(F)c5)c(Cl)c4)c3c2)o1 | NCI-N87 | cell growth, inhibitor | 0.08% alpha1-acid glycoprotein | 0.449 ± 0.0366 µM
CC1(C)Cc2c(-c3ccccc3)c(-c3ccc(Cl)cc3)c(CC(=O)O)n2C1 | HCA-7 overexpressing Has2 | cell proliferation, MTS | – | 186 ± 11.9 µM
Fc1ccccc1/C=C/c1nc2ccccc2nc1Cl | B16-F10 | cell growth or viability, MTT | 72 h | 17.9 µM
Cc1cc(C)n(-c2nc(NN=Cc3c[nH]c4ccccc34)nc(Nc3ccc(Br)cc3)n2)n1 | A549 and SK-BR-3 | cell growth | 120 h | 6.1 to 10.8 µM
COc1cc([C@@H]2c3cc4c(cc3[C@@H](O[C@@H]3O[C@@H]5CO[C@@H](C)O[C@H]5[C@H](O)[C@H]3O)[C@H]3COC(=O)[C@H]23)OCO4)cc(OC)c1O | HCT-15/ADM2 | cell growth, XTT | 72 h | 4.42 µg/mL

SMILES | cell line | test | conditions | IC50
CC(C)=CCC/C(C)=C/CC/C(C)=C/CC[C@]1(C)CCc2cc(O)cc(C)c2O1 | differentiated HL-60 | LTB4 formation | 30 min preincubation, with: thapsigargin | ~5 µM
N=C(N)NCCC[C@H](NC(=O)[C@@H]1CSSC[C@H](NC(=O)[C@H](Cc2ccc3ccccc3c2)NC(=O)[C@H](CCCNC(=N)N)NC(=O)[C@H](CCCNC(=N)N)NC(=O)c2ccc(F)cc2)C(=O)N[C@@H](Cc2ccc(O)cc2)C(=O)N[C@@H](CCCNC(N)=O)C(=O)N[C@@H](CCCCN)C(=O)N[C@H](CCCCN)C(=O)N2CCC[C@H]2C(=O)N[C@@H](Cc2ccc(O)cc2)C(=O)N[C@@H](CCCNC(=N)N)C(=O)N[C@@H](CCCNC(N)=O)C(=O)N1)C(N)=O | Jurkat | cell migration | 3 h | 0.001 µM
Nc1nc2[nH]c(CCCc3ccc(C(=O)NCCCC(=O)O)s3)cc2c(=O)[nH]1 | CHO RT16 (human FRα) | cell growth | with: folic acid 200 nM | > 1 µM
CC(C)C[C@H](NC(=O)[C@@H](NC(=O)[C@@H]1CCCN1C(=O)[C@@H](NC(=O)[C@H](CO)NC(=O)[C@@H](NC(=O)[C@H](CCC(N)=O)NC(=O)[C@@H]1CCCN1C(=O)[C@@H](NC(=O)[C@H](CCCCN)NC(=O)[C@H](CCCCN)NC(=O)[C@@H](NC(=O)[C@H](Cc1ccc(O)cc1)NC(=O)[C@H](CCCNC(=N)N)NC(=O)[C@@H](NC(=O)[C@@H](N)CC(C)C)C(C)C)[C@@H](C)O)C(C)C)C(C)C)[C@@H](C)O)[C@@H](C)O)C(=O)O | SUP-T1 | cell migration, inhibitor | – | 682 µM
COCc1c(C(C)C)nc(C(C)C)c(/C=C/[C@@H](O)C[C@@H](O)CC(=O)O)c1-c1ccc(F)cc1 | T47D | cell growth, SRB | 72 h | 16.2 µM
COc1cc(C(=O)c2cn(Cc3ccccc3)c(-c3ccc(C)cc3)n2)cc(OC)c1OC | A-375, WM164, LNCaP, PC-3, DU-145, PPC-1 | cell growth | – | 0.94 µM
O=c1[nH]c2ccccc2nc1/C=C/c1ccc2ccccc2c1 | NCI-H460 | cell growth or viability, MTT | 72 h | 20.2 µM
c1ccc2[nH]c(-c3ccc(OCc4cn(CCN5CCOCC5)nn4)cc3)nc2c1 | Z-138 | cell growth or viability, MTS | 72 h | 45.8 µM
Nc1ccn([C@@H]2CS[C@H](CO)O2)c(=O)n1 | HepG2.A64, entecavir-resistant | cell growth | 96 h | 225.79 ± 0.04 µM
CCOc1cc2ncc(C#N)c(Nc3ccc(OCc4ccccn4)c(Cl)c3)c2cc1NC(=O)/C=C/CN(C)C | A-431 | cell growth or viability, ATP luminescence | 72 h | 0.228 µM
COc1ccc([C@H](CC(=O)O)N2CCN(CCCc3ccc4c(n3)NCCC4)C2=O)cn1 | human primary kidney fibroblasts | RT-PCR, refers to: PAI-1 mRNA | 24 h, with: TGF-β 5 ng/mL | 0.163 µM
CC(C)C[C@H](NC(=O)C(CSc1c(F)c(F)c(F)c(F)c1F)NC(=O)[C@@H](NC(=O)Cc1c(F)c(F)c(F)c(F)c1F)C(C)C)C(=O)[C@@]1(C)CO1 (stereo in doubt) | NCI-H460 | cell growth or viability | – | 0.723 µM
O=c1[nH]c2ccccc2nc1/C=C/c1ccccn1 | B16-F10 | cell growth or viability, MTT | 72 h | 0.058 µM
C(=C\c1ccccc1)/c1ccccc1 | Jurkat | cell growth or viability, ATP luminescence | 24 h | 163 µM
c1cc(CN2CCCNCCNCCCNCC2)ccc1CN1CCCNCCNCCCNCC1 | SUP-T1 | cell migration, inhibitor | 4 h | 0.06 µM
CC(=O)c1cc(C(=O)N[C@@H](C)Cn2ccc(-c3ccc(C#N)c(Cl)c3)n2)[nH]n1 | VCaP | cell growth or viability, ATP luminescence | – | 0.5 µM
CC(=O)[O][Pt]([NH2])([Cl])([Cl])([NH]C1CCCCC1)[O]C(C)=O | CH1 | cell viability, MTT | 96 h | 0.1 ± 0.02 µM
O=C(Cn1cc(COc2ccc(/C=N/NC(=O)c3ccccc3)cc2)nn1)Nc1nc2ccccc2s1 | T47D | cell viability, MTT | 48 h | 13 µM
COc1cccc(/C=C/c2nc3ccccc3[nH]c2=O)c1OC | B16-F10 | cell growth or viability, MTT | 72 h | 5.83 µM
CC(C)c1cccc(C(C)C)c1-n1ccn(-c2c(C(C)C)cccc2C(C)C)[c]1=[Ag][Se]c1ccccc1 | Vero E6 | cytotoxicity, crystal violet staining | 96 h | 6 ± 0.7 µM

Repeated from above:
SMILES | cell line | test | conditions | IC50
COc1cc([C@@H]2c3cc4c(cc3[C@@H](O[C@@H]3O[C@@H]5CO[C@@H](C)O[C@H]5[C@H](O)[C@H]3O)[C@H]3COC(=O)[C@H]23)OCO4)cc(OC)c1O | HCT-15/ADM2 | cell growth, XTT | 72 h | 4.42 µg/mL
CC(C)=CCC/C(C)=C/CC/C(C)=C/CC[C@]1(C)CCc2cc(O)cc(C)c2O1 | differentiated HL-60 | LTB4 formation | 30 min preincubation, with: thapsigargin | ~5 µM
N=C(N)NCCC[C@H](NC(=O)[C@@H]1CSSC[C@H](NC(=O)[C@H](Cc2ccc3ccccc3c2)NC(=O)[C@H](CCCNC(=N)N)NC(=O)[C@H](CCCNC(=N)N)NC(=O)c2ccc(F)cc2)C(=O)N[C@@H](Cc2ccc(O)cc2)C(=O)N[C@@H](CCCNC(N)=O)C(=O)N[C@@H](CCCCN)C(=O)N[C@H](CCCCN)C(=O)N2CCC[C@H]2C(=O)N[C@@H](Cc2ccc(O)cc2)C(=O)N[C@@H](CCCNC(=N)N)C(=O)N[C@@H](CCCNC(N)=O)C(=O)N1)C(N)=O | Jurkat | cell migration | 3 h | 0.001 µM
Nc1nc2[nH]c(CCCc3ccc(C(=O)NCCCC(=O)O)s3)cc2c(=O)[nH]1 | CHO RT16 (human FRα) | cell growth | with: folic acid 200 nM | > 1 µM
